Published values gathered from unrelated publications.
Protocols differ between the studies behind these lines. Several values in a cell are separate wells, animals, samples, runs or records. ± marks the error that the study gave.
Cell line: HeLa

For `CC(C)C[C@H](NC(=O)[C@H](CCCCN)NC(=O)[C@H](CC(C)C)NC(=O)[C@H](CC(C)C)NC(=O)[C@H](CCCCN)NC(=O)[C@H](CCCCN)NC(=O)[C@H](CC(C)C)NC(=O)[C@H](CC(C)C)NC(=O)[C@H](CCCCN)NC(=O)[C@H](CC(C)C)NC(=O)[C@H](CC(C)C)NC(=O)[C@H](CCCCN)NC(=O)[C@H](CCCCN)NC(=O)[C@H](CC(C)C)NC(=O)[C@@H](N)CSSC[C@H](N)C(=O)N[C@@H](CC(C)C)C(=O)N[C@@H](CCC(=O)O)C(=O)N[C@@H](Cc1c[nH]cn1)C(=O)N[C@@H](CC(C)C)C(=O)N[C@@H](CC(C)C)C(=O)N[C@@H](CCC(=O)O)C(=O)N[C@@H](Cc1c[nH]cn1)C(=O)N[C@@H](CC(C)C)C(=O)N[C@@H](CCC(=O)O)C(=O)N[C@@H](Cc1c[nH]cn1)C(=O)N[C@@H](CC(C)C)C(=O)N[C@@H](CC(C)C)C(=O)N[C@@H](CCC(=O)O)C(=O)N[C@@H](Cc1c[nH]cn1)C(N)=O)C(N)=O`, the IC50 was over 100 µM (cell growth or viability, MTT; pH 7.4).
`C[C@H]1O[C@@H](O[C@H]2CC[C@@]3(C)[C@H](CC[C@@H]4[C@@H]3C[C@@H](O)[C@]3(C)[C@@H](C5=CC(=O)OC5)[C@@H](O)C[C@]43O)C2)C[C@H](O)[C@@H]1O` gave an IC50 of 0.64 µM (cell growth or viability, MTT; 48 h).
With `CC(C)C[C@H](NC(=O)[C@H](CC(C)C)NC(=O)[C@H](CCC(=O)O)NC(=O)[C@H](CCC(=O)O)NC(=O)[C@H](CC(C)C)NC(=O)[C@H](Cc1c[nH]cn1)NC(=O)[C@H](Cc1c[nH]cn1)NC(=O)[C@H](CC(C)C)NC(=O)[C@H](CC(C)C)NC(=O)[C@H](CCC(=O)O)NC(=O)[C@H](CCC(=O)O)NC(=O)[C@@H](N)CC(C)C)C(=O)N[C@@H](Cc1c[nH]cn1)C(=O)N[C@@H](Cc1c[nH]cn1)C(N)=O` the IC50 was over 100 µM (cell growth or viability, MTT; pH 7.4).
`O=C(Cc1ccc2ccccc2c1)N[C@H](Cc1ccccc1)C(=O)N[C@H](Cc1ccccc1)C(=O)N[C@H](Cc1ccc(OP(=O)(O)O)cc1)C(=O)N[C@H](Cc1ccc(OP(=O)(O)O)cc1)C(=O)O` gave an IC50 of over 483 µg/mL (cell growth or viability, MTT).
`CC(=O)[C@@H]1CCCN1C(=O)[C@@H]1CCCN1C(=O)[C@H](Cc1ccccc1)NC(=O)[C@@H](NC(=O)[C@@H](NC(=O)[C@@H](NC(=O)[C@@H]1CCCN1C(=O)[C@H](C)NC(=O)OC(C)(C)C)C(C)C)C(C)C)C(C)C` gave an IC50 of 12 µM (cell growth or viability, SRB).
`NC(=O)CC[C@@H](NC(=O)[C@@H](CCC(N)=O)NC(=O)[C@@H](CC(N)=O)NC(=O)[C@@H](CC(N)=O)NC(=O)CNC(=O)[C@@H](Cc1ccccc1)NC(=O)Cc1ccc2ccccc2c1)C(=O)N[C@H](CC(N)=O)C(=O)N[C@H](Cc1ccc(OP(=O)(O)O)cc1)C(=O)O` gave an IC50 of 264 ± 28.4 µM.
The IC50 of `CC(C)C[C@H](NC(=O)[C@H](CCCCN)NC(=O)[C@H](CC(C)C)NC(=O)[C@H](CC(C)C)NC(=O)[C@H](CCCCN)NC(=O)[C@H](CCCCN)NC(=O)[C@H](CC(C)C)NC(=O)[C@H](CC(C)C)NC(=O)[C@H](CCCCN)NC(=O)[C@H](CC(C)C)NC(=O)[C@H](CC(C)C)NC(=O)[C@H](CCCCN)NC(=O)[C@H](CCCCN)NC(=O)[C@H](CC(C)C)NC(=O)[C@@H](N)CSSC[C@H](N)C(=O)N[C@@H](CC(C)C)C(=O)N[C@@H](Cc1c[nH]cn1)C(=O)N[C@@H](CCC(=O)O)C(=O)N[C@@H](CC(C)C)C(=O)N[C@@H](CC(C)C)C(=O)N[C@@H](CCC(=O)O)C(=O)N[C@@H](Cc1c[nH]cn1)C(=O)N[C@@H](CC(C)C)C(=O)N[C@@H](Cc1c[nH]cn1)C(=O)N[C@@H](CCC(=O)O)C(=O)N[C@@H](CC(C)C)C(=O)N[C@@H](CC(C)C)C(=O)N[C@@H](CCC(=O)O)C(=O)N[C@@H](Cc1c[nH]cn1)C(N)=O)C(N)=O` is reported as over 100 µM (cell growth or viability, MTT; pH 7.4).
`CC[C@H](C)[C@H](NC(=O)[C@H](C)NC(=O)[C@H](CCCCN)NC(=O)[C@H](CC(C)C)NC(=O)[C@@H](N)Cc1ccccc1)C(=O)N[C@@H](CCCCN)C(=O)N[C@@H](CCCCN)C(=O)N[C@@H](Cc1ccccc1)C(=O)NCC(=O)N[C@@H](CCCCN)C(=O)N[C@@H](CCC(=O)O)C(=O)N[C@@H](Cc1ccccc1)C(=O)N[C@@H](CCCCN)C(=O)N[C@@H](CCCCN)C(=O)N[C@H](C(=O)NCC(=O)N[C@@H](C)C(=O)N[C@@H](CCCCN)C(=O)N[C@@H](CC(C)C)C(=O)N[C@@H](CCCCN)C(=O)O)[C@@H](C)CC` has an IC50 of over 128 µg/mL (cell growth or viability, MTT).
`C[C@H]1[C@H](OC(=O)CCC(=O)OCCc2ccc(O)cc2)O[C@@H]2O[C@@]3(C)CC[C@H]4[C@H](C)CC[C@@H]1[C@@]24OO3` gave an IC50 of 2.66 µM (cell growth or viability, MTT).
The IC50 of `CC(C)C[C@H](NC(=O)[C@H](C)NC(=O)[C@H](CCCCN)NC(=O)[C@H](CC(C)C)NC(=O)[C@H](C)NC(=O)[C@H](CC(C)C)NC(=O)[C@H](CCCCN)NC(=O)[C@H](CC(C)C)NC(=O)[C@H](C)NC(=O)[C@H](CC(C)C)NC(=O)[C@@H](N)CCCCN)C(=O)N[C@@H](CCCCN)C(=O)N[C@@H](C)C(=O)N[C@@H](C)C(=O)N[C@@H](CC(C)C)C(=O)N[C@@H](CCCCN)C(=O)N[C@@H](CC(C)C)C(=O)N[C@@H](C)C(N)=O` is reported as 1 µM (cytotoxicity).
The IC50 of `C#CCCCC[C@H](C)C[C@@H](C)C(=O)N(C)[C@@H](C)C(=O)N1CCC[C@H]1C(=O)N(C)[C@H](C(=O)N(C)[C@H](C(=O)OC)C(C)C)C(C)C` is reported as 3 µM and ~3 µM (cell growth or viability, SRB).
For `Cc1nn(-c2ccccc2)c(O)c1C(c1ccccc1O)c1c(C)nn(-c2ccccc2)c1O`, the IC50 was 35.4 µM (cell growth or viability, MTT; 48 h).
`CC1=CC=c2ccc3c4c2[N]1[Re](=[C]=O)(=[C]=O)(=[C]=O)([C]#[N+]c1c(C)cccc1C)[N]4C(C)=CC=3.O=S(=O)([O-])C(F)(F)F` has an IC50 of 1.8 µM (cell growth or viability, MTT; 48 h).
The IC50 of `Cc1nn(-c2ccccc2)c(O)c1C(c1ccc([N+](=O)[O-])cc1)c1c(C)nn(-c2ccccc2)c1O` is reported as 38.3 µM (cell growth or viability, MTT; 48 h).
With `N=C(N)NCCC[C@H](NC(=O)[C@H](CCCNC(=N)N)NC(=O)[C@H](CCCNC(=N)N)NC(=O)[C@H](CCCNC(=N)N)NC(=O)[C@H](CCCNC(=N)N)NC(=O)[C@H](CCCNC(=N)N)NC(=O)[C@H](CCCNC(=N)N)NC(=O)[C@H](CCCNC(=N)N)NC(=O)[C@@H](N)CSCC(=O)Nc1ccc(-c2c3nc(c(-c4ccccc4)c4ccc([nH]4)c(-c4ccccc4)c4nc(c(-c5ccccc5)c5ccc2[nH]5)C=C4)C=C3)cc1)C(N)=O` the IC50 was 3.89 ± 0.453 µM (phototoxicity; 2 h plus 18 h, 2.5% FBS, with: irradiation 525 nm for 160 s).
The IC50 of `Cc1nn(-c2ccccc2)c(O)c1C(c1ccc(N(C)C)cc1)c1c(C)nn(-c2ccccc2)c1O` is reported as 39.3 µM (cell growth or viability, MTT; 48 h).
`CC(=O)O[C@H]1C[C@H](O[C@H]2[C@@H](O)C[C@H](O[C@H]3[C@@H](O)C[C@H](O[C@H]4CC[C@@]5(C)[C@H](CC[C@@H]6[C@@H]5CC[C@]5(C)[C@@H](C7=CC(=O)OC7)[C@@H](O)C[C@]65O)C4)O[C@@H]3C)O[C@@H]2C)O[C@H](C)[C@H]1O[C@@H]1O[C@H](CO)[C@@H](O)[C@H](O)[C@H]1O` has an IC50 of 0.16 µM (cell growth or viability, MTT; 48 h).

Repeated from above:
With `N=C(N)NCCC[C@H](NC(=O)[C@H](CCCNC(=N)N)NC(=O)[C@H](CCCNC(=N)N)NC(=O)[C@H](CCCNC(=N)N)NC(=O)[C@H](CCCNC(=N)N)NC(=O)[C@H](CCCNC(=N)N)NC(=O)[C@H](CCCNC(=N)N)NC(=O)[C@H](CCCNC(=N)N)NC(=O)[C@@H](N)CSCC(=O)Nc1ccc(-c2c3nc(c(-c4ccccc4)c4ccc([nH]4)c(-c4ccccc4)c4nc(c(-c5ccccc5)c5ccc2[nH]5)C=C4)C=C3)cc1)C(N)=O` the IC50 was 3.89 ± 0.453 µM (phototoxicity; 2 h plus 18 h, 2.5% FBS, with: irradiation 525 nm for 160 s).
The IC50 of `Cc1nn(-c2ccccc2)c(O)c1C(c1ccc(N(C)C)cc1)c1c(C)nn(-c2ccccc2)c1O` is reported as 39.3 µM (cell growth or viability, MTT; 48 h).
